Experimental data collected from several papers.
Protocols differ between the studies behind these lines. ± gives the spread as reported. Converted amounts (≈) assume the structure as drawn.
Organism: Pseudomonas aeruginosa

CC(C)[C@H]1NC(=O)[C@H](Cc2ccccc2)NC(=O)[C@@H](C(C)C)NC(=O)[C@@H](C)NC(=O)[C@H](CO)NC(=O)[C@@H](Cc2c(-c3ccc(-c4ccccc4)c4ccccc34)[nH]c3ccccc23)NC(=O)[C@@H](CO)NC1=O  MIC90 (broth dilution): > 50 µM
Cn1cc(S(=O)(=O)c2ccc3nc(N)sc3c2)cn1  inhibition (swarming area, modified FAB agar; PA14-lux; 200 µM, 24 h; reference: DMSO vehicle): -2.55%
CN[C@H](CC(C)C)C(=O)N[C@H]1C(=O)N[C@@H](CC(N)=O)C(=O)N[C@H]2C(=O)N[C@H]3C(=O)N[C@H](C(=O)N[C@H](C(=O)NCc4cn(CCCCC(=O)N[C@H](C(=O)N[C@@H](CCN)C(=O)N[C@H]5CCNC(=O)[C@H]([C@@H](C)O)NC(=O)[C@H](CCN)NC(=O)[C@H](CCN)NC(=O)[C@H](CC(C)C)NC(=O)[C@@H](CC(C)C)NC(=O)[C@H](CCN)NC5=O)[C@@H](C)O)nn4)c4cc(O)cc(O)c4-c4cc3ccc4O)[C@H](O)c3ccc(c(Cl)c3)Oc3cc2cc(c3O[C@@H]2O[C@H](CO)[C@@H](O)[C@H](O)[C@H]2O[C@H]2C[C@](C)(N)[C@H](O)[C@H](C)O2)Oc2ccc(cc2Cl)[C@H]1O  MIC (broth microdilution; ATCC 35218, cation-adjusted Mueller-Hinton broth): 6 µM (≈ 15.2 µg/mL)
CC(C)C[C@H](NC(=O)[C@H](CC(C)C)NC(=O)[C@H](CCCCN)NC(=O)[C@H](Cc1ccccc1)NC(=O)[C@@H](NC(=O)[C@H](CCCNC(=N)N)NC(=O)[C@@H](N)CCCCN)C(C)C)C(=O)N[C@@H](CCCCN)C(=O)N[C@@H](CCCNC(=N)N)C(=O)N[C@@H](Cc1ccc(O)cc1)C(=O)N[C@@H](Cc1c[nH]c2ccccc12)C(=O)N[C@@H](CCCNC(=N)N)C(=O)N[C@@H](CCC(N)=O)C(=O)N[C@@H](CC(C)C)C(=O)N[C@@H](CCCCN)C(=O)N[C@@H](CCCCN)C(=O)N1CCC[C@H]1C(=O)N[C@H](C(=O)N[C@@H](CCCNC(=N)N)C(=O)NCCOCCOCC(=O)O)C(C)C  ROS level (DCFH-DA fluorescence; concentration not given; reference: untreated): 10 to 12 fold
CCC(=O)OCCSCCC(=O)N[C@H](CCN)C(=O)N[C@@H](CCN)C(=O)N[C@@H](CCN)C(=O)N[C@@H](CC(C)C)C(=O)N[C@H](Cc1ccccc1)C(=O)N[C@@H](CCN)C(=O)N[C@@H](CCN)C(=O)N[C@@H](CC(C)C)C(N)=O  MBC (PAO1; 24 h, 37 °C): > 128 µM
O=C(O)CN(CC(=O)O)CP(=O)(O)O  meropenem MIC (IMP-37 and IMP-13 producer; 32 µg/mL, together with: meropenem): 16 µg/mL
Nc1nc2ccc(S(=O)(=O)c3cn[nH]c3N)cc2s1  swarming inhibition (swarming area; PA14-lux; 200 µM, 24 h; reference: DMSO): 86.8%
CC(C)C[C@H](NC(=O)[C@H](CCN)NC(=O)[C@H](CCN)NC(=O)[C@@H](Cc1ccccc1)NC(=O)[C@H](CC(C)C)NC(=O)[C@H](CCN)NC(=O)[C@H](CCN)NC(=O)[C@@H](CCN)NC(=O)[C@@H](N)CS)C(N)=O  MBC (PAO1; 24 h, 37 °C): 128 µM (≈ 127 µg/mL)
CCCC(=O)C#Cc1ccc(F)c(F)c1  pyocyanin production (10 µM, 24 h; reference: untreated): 67%
C#CCNC(=O)[C@H]1NC(=O)[C@H]2NC(=O)[C@H](NC(=O)[C@@H]3NC(=O)[C@H](CC(N)=O)NC(=O)[C@H](NC(=O)[C@@H](CC(C)C)NC)[C@H](O)c4ccc(c(Cl)c4)Oc4cc3cc(c4O[C@@H]3O[C@H](CO)[C@@H](O)[C@H](O)[C@H]3O[C@H]3C[C@](C)(N)[C@H](O)[C@H](C)O3)Oc3ccc(cc3Cl)[C@H]2O)c2ccc(O)c(c2)-c2c(O)cc(O)cc21  MIC (broth microdilution; ATCC 13883, cation-adjusted Mueller-Hinton broth): > 86 µM
Nc1nc2ccc(S(=O)(=O)c3cn[nH]c3)cc2s1  inhibition (swarming area, modified FAB agar; PA14-lux; 200 µM, 24 h; reference: DMSO vehicle): 26%
CC(C)[C@H]1NC(=O)CNC(=O)[C@H](CO)NC(=O)[C@@H](Cc2c(-c3ccc(-c4ccc5ccccc5c4)cc3)[nH]c3ccccc23)NC(=O)[C@@H](CO)NC(=O)[C@@H](C(C)C)NC(=O)[C@H](Cc2ccccc2)NC1=O  MIC90 (broth dilution): > 50 µM
CC(N)C(O)CCCCCCCCCCCCCCC(=O)CCCCCCCC(O)C(C)N (stereo not drawn)  growth inhibition (resazurin; ATCC 27853; 50 µM): 3%
Nc1nc2ccc(Oc3ccncc3)cc2s1  inhibition (pyocyanin production; PA14-lux; 200 µM, 18 h; reference: DMSO vehicle): 26%
O=c1n(CCNCCOS(=O)(=O)c2ccccc2)c(=O)n(S(=O)(=O)c2ccccc2)c(=O)n1S(=O)(=O)c1ccccc1  MLC (broth microdilution): 4 ± 1 µg/mL
Nc1nc2ccc(C(F)(F)F)cc2s1  inhibition (pyocyanin production; PA14-lux; 200 µM, 18 h; reference: DMSO vehicle): 26%
CC(C)[C@H]1NC(=O)[C@H](Cc2ccccc2)NC(=O)[C@@H](C(C)C)NC(=O)[C@@H](C)NC(=O)[C@H](CO)NC(=O)[C@@H](Cc2c(-c3ccc(-c4ccc(-c5ccccc5)cc4)cc3)[nH]c3ccccc23)NC(=O)[C@@H](CO)NC1=O  MIC90 (broth dilution): > 50 µM
CC[C@H](C)[C@H](NC(=O)[C@H](CCCNC(=N)N)NC(=O)[C@H](CO)NC(=O)[C@H](Cc1ccc(O)cc1)NC(=O)[C@@H](NC(=O)[C@@H](NC(=O)[C@H](C)NC(=O)CNC(=O)[C@H](CCCCN)NC(=O)[C@H](CCCCN)NC(=O)CCNC(=O)CCCCCNC(=O)[C@H](CCCNC(=N)N)NC(=O)CCCCCNC(=O)[C@H](CCCNC(=N)N)NC(=O)[C@H](CCCNC(=N)N)NC(=O)CCCCCNC(=O)[C@H](CCCNC(=N)N)NC(=O)[C@H](CCCNC(=N)N)NC(=O)CCCCCNC(=O)[C@H](CCCNC(=N)N)NC(=O)[C@H](CCCNC(=N)N)NC(=O)CCCCCNC(=O)[C@@H](N)CCCNC(=N)N)C(C)C)[C@@H](C)O)C(=O)N[C@@H](CO)C(=O)NCC(=O)N[C@@H](CCC(N)=O)C(=O)N[C@@H](Cc1ccc(O)cc1)C(=O)N[C@@H](CCCCN)C(=O)O  inhibition (biofilm formation, crystal violet; ATCC 27853; below 48 µM): < 50%

For quick reference, copied from above:
Nc1nc2ccc(S(=O)(=O)c3cn[nH]c3)cc2s1  inhibition (swarming area, modified FAB agar; PA14-lux; 200 µM, 24 h; reference: DMSO vehicle): 26%
CC(C)[C@H]1NC(=O)CNC(=O)[C@H](CO)NC(=O)[C@@H](Cc2c(-c3ccc(-c4ccc5ccccc5c4)cc3)[nH]c3ccccc23)NC(=O)[C@@H](CO)NC(=O)[C@@H](C(C)C)NC(=O)[C@H](Cc2ccccc2)NC1=O  MIC90 (broth dilution): > 50 µM
